Literature values, collected from citations in different studies.
Each numbered part shows a few of the values that one paper quotes. In brackets after ≈: the same amount, converted by molar mass.
UniProt P08684, sequence (whole entry, looked up): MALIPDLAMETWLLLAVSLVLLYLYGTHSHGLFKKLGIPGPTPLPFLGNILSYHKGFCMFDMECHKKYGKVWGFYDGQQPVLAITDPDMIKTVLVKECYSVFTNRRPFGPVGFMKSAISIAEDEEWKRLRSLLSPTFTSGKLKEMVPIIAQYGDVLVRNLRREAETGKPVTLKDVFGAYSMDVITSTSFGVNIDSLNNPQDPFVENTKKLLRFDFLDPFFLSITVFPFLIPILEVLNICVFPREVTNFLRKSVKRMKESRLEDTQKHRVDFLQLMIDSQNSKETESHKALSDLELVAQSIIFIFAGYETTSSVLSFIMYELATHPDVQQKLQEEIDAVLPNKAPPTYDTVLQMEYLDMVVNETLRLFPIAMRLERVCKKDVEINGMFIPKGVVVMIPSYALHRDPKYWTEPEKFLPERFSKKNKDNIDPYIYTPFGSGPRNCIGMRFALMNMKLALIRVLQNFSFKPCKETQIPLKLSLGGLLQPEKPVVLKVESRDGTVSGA
UniProt Q07343, sequence (whole entry, looked up): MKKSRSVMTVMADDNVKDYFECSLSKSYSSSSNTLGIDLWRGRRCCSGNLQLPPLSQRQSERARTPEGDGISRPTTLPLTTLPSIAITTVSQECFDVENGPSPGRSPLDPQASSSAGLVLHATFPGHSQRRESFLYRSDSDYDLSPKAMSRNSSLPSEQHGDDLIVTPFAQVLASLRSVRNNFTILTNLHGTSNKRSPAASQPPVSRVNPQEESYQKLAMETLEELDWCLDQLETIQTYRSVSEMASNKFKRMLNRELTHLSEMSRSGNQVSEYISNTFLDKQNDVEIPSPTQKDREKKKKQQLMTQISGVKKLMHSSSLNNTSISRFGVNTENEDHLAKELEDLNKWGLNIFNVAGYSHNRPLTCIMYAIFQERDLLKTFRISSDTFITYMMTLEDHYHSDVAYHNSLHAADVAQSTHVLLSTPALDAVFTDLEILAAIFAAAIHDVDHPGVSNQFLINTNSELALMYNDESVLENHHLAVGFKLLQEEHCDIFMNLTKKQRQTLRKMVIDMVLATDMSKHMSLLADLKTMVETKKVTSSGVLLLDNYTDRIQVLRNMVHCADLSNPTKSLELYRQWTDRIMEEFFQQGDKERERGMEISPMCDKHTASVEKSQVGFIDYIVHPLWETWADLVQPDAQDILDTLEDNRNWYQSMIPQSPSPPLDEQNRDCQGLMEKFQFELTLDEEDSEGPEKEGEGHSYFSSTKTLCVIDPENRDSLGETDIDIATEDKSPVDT
UniProt Q9NSY1, sequence (whole entry, looked up): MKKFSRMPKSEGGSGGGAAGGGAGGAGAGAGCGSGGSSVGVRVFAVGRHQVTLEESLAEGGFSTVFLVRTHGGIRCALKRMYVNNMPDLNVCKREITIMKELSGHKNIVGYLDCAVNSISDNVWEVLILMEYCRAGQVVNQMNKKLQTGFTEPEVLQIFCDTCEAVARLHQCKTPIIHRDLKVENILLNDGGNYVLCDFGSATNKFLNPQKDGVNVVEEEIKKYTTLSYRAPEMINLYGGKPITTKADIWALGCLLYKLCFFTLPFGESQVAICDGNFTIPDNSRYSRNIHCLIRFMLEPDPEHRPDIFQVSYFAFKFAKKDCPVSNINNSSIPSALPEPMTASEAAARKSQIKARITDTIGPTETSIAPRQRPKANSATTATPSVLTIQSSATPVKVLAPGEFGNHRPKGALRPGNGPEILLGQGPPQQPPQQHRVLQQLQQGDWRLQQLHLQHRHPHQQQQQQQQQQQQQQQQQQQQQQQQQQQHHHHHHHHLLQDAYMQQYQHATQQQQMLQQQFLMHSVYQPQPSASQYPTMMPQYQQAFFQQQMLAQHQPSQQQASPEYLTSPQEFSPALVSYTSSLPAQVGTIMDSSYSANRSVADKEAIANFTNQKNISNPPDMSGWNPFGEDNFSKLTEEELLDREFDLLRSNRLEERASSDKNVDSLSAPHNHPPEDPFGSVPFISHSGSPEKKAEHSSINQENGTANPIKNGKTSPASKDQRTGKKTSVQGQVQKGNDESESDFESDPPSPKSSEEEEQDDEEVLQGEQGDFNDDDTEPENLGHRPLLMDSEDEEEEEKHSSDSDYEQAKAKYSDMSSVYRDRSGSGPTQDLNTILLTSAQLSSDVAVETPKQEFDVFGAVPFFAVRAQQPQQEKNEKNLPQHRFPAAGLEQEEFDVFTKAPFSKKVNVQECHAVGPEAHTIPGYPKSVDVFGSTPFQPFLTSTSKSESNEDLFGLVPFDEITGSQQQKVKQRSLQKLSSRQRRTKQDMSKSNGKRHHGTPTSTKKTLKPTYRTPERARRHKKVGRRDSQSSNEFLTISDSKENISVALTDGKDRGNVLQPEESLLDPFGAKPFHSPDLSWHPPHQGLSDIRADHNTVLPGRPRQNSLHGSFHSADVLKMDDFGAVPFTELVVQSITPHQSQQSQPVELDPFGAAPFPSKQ
UniProt P13267, sequence (whole entry, looked up): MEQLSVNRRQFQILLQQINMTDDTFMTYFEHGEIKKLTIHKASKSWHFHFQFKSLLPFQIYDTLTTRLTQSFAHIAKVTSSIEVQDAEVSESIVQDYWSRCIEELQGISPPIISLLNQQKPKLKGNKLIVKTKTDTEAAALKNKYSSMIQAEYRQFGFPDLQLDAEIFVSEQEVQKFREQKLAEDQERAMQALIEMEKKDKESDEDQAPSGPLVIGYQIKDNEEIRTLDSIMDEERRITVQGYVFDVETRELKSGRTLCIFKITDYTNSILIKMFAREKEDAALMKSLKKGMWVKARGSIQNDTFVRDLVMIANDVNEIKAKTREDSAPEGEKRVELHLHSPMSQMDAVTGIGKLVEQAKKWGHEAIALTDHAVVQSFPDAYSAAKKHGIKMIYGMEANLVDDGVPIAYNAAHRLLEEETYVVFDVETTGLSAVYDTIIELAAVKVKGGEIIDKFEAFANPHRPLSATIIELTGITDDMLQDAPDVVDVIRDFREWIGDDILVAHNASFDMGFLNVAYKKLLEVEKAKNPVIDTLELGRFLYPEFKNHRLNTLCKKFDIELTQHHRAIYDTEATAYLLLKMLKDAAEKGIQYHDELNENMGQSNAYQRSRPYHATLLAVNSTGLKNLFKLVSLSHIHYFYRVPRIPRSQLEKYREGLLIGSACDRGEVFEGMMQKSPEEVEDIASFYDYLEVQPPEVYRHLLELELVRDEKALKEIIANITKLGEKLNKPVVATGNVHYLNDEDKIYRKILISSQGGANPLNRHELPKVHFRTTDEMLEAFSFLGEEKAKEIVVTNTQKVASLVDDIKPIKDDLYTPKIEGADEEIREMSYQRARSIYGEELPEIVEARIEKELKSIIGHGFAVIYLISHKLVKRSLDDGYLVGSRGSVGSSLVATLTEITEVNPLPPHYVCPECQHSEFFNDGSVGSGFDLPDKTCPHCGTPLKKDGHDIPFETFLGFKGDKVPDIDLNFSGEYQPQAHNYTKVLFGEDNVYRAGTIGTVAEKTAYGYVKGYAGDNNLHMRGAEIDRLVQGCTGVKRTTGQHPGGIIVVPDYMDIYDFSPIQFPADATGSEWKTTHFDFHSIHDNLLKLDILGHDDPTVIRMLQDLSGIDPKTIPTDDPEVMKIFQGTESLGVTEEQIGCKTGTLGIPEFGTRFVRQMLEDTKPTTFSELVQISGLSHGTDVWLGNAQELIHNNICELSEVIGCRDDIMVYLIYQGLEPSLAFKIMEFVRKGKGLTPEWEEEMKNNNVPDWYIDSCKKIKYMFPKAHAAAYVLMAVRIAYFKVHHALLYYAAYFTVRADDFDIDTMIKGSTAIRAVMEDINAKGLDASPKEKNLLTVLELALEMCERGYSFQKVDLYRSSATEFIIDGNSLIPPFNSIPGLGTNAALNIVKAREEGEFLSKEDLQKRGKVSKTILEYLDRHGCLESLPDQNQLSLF

Block 1
Target: HLA class I histocompatibility antigen, A alpha chain, allele A*26:03 (Homo sapiens, UniProt P04439)
Effect on: peptide-MHC binding
Form: peptide
| Molecule | IC50 |
| --- | --- |
| IFDDLQGSL | > 20000 nM |
| ETWVETWAF | 381 nM |
| RSLFNTIAVLY | > 20000 nM |
| DTVLFNAGL | 54 nM |
| KRSTPFYTK | > 20000 nM |
| EGIPGLYTY | > 20000 nM |
| LTFLDCLYY | > 20000 nM |
| KRLLLKLDF | > 20000 nM |
| ALFDRPAFK | > 20000 nM |
| RVFDKADGK | > 20000 nM |
| TVGYMYIMK | > 20000 nM |
| HEGDIVPLF | > 20000 nM |
| AEALLADGL | > 20000 nM |
| SEFWLNYTA | > 20000 nM |
| RRCPHHERC | > 20000 nM |
| EQRLIDICV | > 20000 nM |
| GYAWIDFDI | > 20000 nM |
| YQRALHTSI | > 20000 nM |
| SIPQDGAKM | 501 nM |
| YMGLVKKAK | > 20000 nM |
| SEVKFKYVL | > 20000 nM |
| KRINSLIKY | > 20000 nM |
| WMACHSAAF | 158 nM |
| SSDDIPPRW | > 20000 nM |
| WENGFKVVL | > 20000 nM |

Single results of other studies
| SMILES | target or system | assay | system | conditions | scale | quantity | result |
| --- | --- | --- | --- | --- | --- | --- | --- |
| CCN(N=O)C(N)=O | HepaRG | DNA damage, comet | – | – | – | lowest effective concentration | 800 µM |
| CCC(=O)C[C@@H](O)C[C@@H](C)C[C@H](NC(=O)[C@@H]1C[C@H](C)CN1C(=O)/C=C/[C@@H](C)CC)C(=O)N[C@H](C(=O)NC(C)(C)C(=O)N[C@@H](CC(C)C)C(=O)N[C@@H](CC(C)C)C(=O)NC(C)(C)C(=O)NC(C)(C)C(=O)NCCC(=O)N[C@@H](C)CN(C)C)[C@H](O)C(C)C | ATP synthase, rat liver mitochondria | oxygen consumption | – | – | – | IC50 | < 200 nM |
| CNCCN1C(=O)[C@H](OC(C)=O)[C@H](c2ccc(OC)cc2)Sc2ccccc21 | Cytochrome P450 3A4 (CYP3A4, Homo sapiens, UniProt P08684) | enzyme activity, inhibitor | – | – | – | Ki | 2430 nM |
| CCN(CC)N=O | – | fingerprint mutation, item: T>C substitution | mouse, liver | concentration not given | – | mutation frequency | increased |
| CC(C)C[C@H](NC(=O)[C@H](Cc1ccccc1)NC(=O)c1cnccn1)B(O)O | CMA1 | enzyme activity, inhibitor | – | 10 µM | – | inhibition | 95% |
| COc1cc2c(c(OC)c1OC)-c1ccc(OC)c(=O)cc1[C@@H](NC(C)=O)CC2 | – | – | human | median, range | – | renal clearance | 116 mL/h/kg |
| Cn1c(=O)c2c(nc(C=Cc3cccc(Cl)c3)n2C)n(C)c1=O | rat A2A receptor-expressing cells | antagonist, cell-based | – | – | – | Kb | 60 nM |
| CC(C)(N)CNC(=O)C[C@H]1CC[C@]2(CC1)OO[C@]1(O2)C2CC3CC(C2)CC1C3 | – | – | – | pH 7.4 | – | logD | 2.6 |
| O=C(O)C(F)(F)C(F)(F)C(F)(F)C(F)(F)C(F)(F)C(F)(F)C(F)(F)F | – | – | human, young female | – | – | renal clearance | 0.00583 mL/h/kg |
| COc1ncccc1-c1cnn2ccc(N3CCN(C(=O)OC(C)C)CC3)nc12 | BMP2K (Homo sapiens, UniProt Q9NSY1) | – | – | literature value | – | IC50 | 14 nM |
| CC(C)[C@H](N)C(=O)OCCCCCn1cnc2nc(NCc3ccc(Cl)c(Cl)c3)[nH]c(=O)c21 | DNA polymerase III PolC-type (Bacillus subtilis, UniProt P13267) | inhibitor | – | published value | – | Ki | 250 nM |
| COc1ccc(C[C@@H](C)[C@@H](C)Cc2ccc(OC)c(OC)c2)cc1OC | – | – | human | intravenous, 1700 mg, initial dose | – | AUC | 31300 ng·h/mL |
| Cc1cccc(-c2[nH]c(CNc3ccccc3F)nc2-c2ccc3ncnn3c2)n1 | – | – | Beagle dog | oral, 14 days | – | MTD | < 100 mg/kg/day |
| Cc1cc(/C=C/C#N)cc(C)c1Nc1ccnc(Nc2ccc(C#N)cc2)n1 | Gag-Pol polyprotein, reverse transcriptase (gag-pol, Human immunodeficiency virus 1, UniProt P03366) | inhibitor | – | – | – | IC50 | 15 to 22 nM |
| CCCCCc1cc(O)c(C/C=C(\C)CCC=C(C)C)c(O)c1 | CYP1A2, human | enzyme activity, inhibitor | human liver microsomes | 10 µM | – | inhibition | inhibited |
| Cc1ccnc2c1NC(=O)c1cccnc1N2C1CC1 | HIV-1 reverse transcriptase V179D | – | – | cell-based | reference: mutant over wild type | IC50 fold change | 4.6 fold |
| c1c[nH]cn1 | sperm whale myoglobin L29F, met form | – | – | pH 7 | – | apparent association rate constant | 120 M⁻¹ s⁻¹ |
| CCCCCc1cc(O)c2c(c1)OC(C)(C)[C@@H]1CCC(C)=C[C@@H]21 | CYP2B6, human | enzyme activity, inhibitor | human liver microsomes | 10 µM | – | inhibition | inhibited |
| O=S(=O)(O)C(F)(F)C(F)(F)C(F)(F)C(F)(F)C(F)(F)C(F)(F)C(F)(F)C(F)(F)F | – | – | mice, female | – | – | half-life | 38 days |
| c1cc([C@H]2CC[C@]3(CC2)OO[C@]2(O3)C3CC4CC(C3)CC2C4)ccc1OCCN1CCOCC1 | – | – | FaSSIF | pH 6.5 | – | thermodynamic solubility | 40.6 µg/mL (≈ 86.5 µM) |
| O=C(c1cc2cccnc2n1-c1ccc(Cl)c(Cl)c1)N1CC(F)(F)C1 | PDE4B (Homo sapiens, UniProt Q07343) | – | – | – | – | IC50 | ~140 nM |
| Cc1ccnc(-c2cc(C)ccn2)c1.[Ru+2].c1ccc(-c2ccnc3c2ccc2c(-c4ccccc4)ccnc23)cc1.c1ccc(-c2ccnc3c2ccc2c(-c4ccccc4)ccnc23)cc1 | CT26 | – | – | light irradiation 480 nm | – | EC50 | 190 nM |
| NC1CCCCC1N.O=C([O-])C(=O)[O-].[Pt+2] (centres unmarked) | – | item: total platinum | mouse, plasma | intraperitoneal, 5 mg Pt/kg | – | terminal half-life | 0.625 days |
| O=C(O)C(F)(F)C(F)(F)C(F)(F)C(F)(F)C(F)(F)C(F)(F)C(F)(F)F | – | – | mice, female | – | – | half-life | 16 days |
| Cc1c2ccccc2c(C)c2c1ccc1ccccc12 | HepaRG | DNA damage, comet | – | – | – | lowest effective concentration | 25 µM |
